Published values of several laboratories.
“And” joins repeats or separate records; there may be more than shown. Numbers after ± are the reported error.
Metallo-beta-lactamase type 2: Metallo-beta-lactamase type 2 (Serratia marcescens, UniProt P52699)
Sequence of UniProt P27487 (whole entry, looked up): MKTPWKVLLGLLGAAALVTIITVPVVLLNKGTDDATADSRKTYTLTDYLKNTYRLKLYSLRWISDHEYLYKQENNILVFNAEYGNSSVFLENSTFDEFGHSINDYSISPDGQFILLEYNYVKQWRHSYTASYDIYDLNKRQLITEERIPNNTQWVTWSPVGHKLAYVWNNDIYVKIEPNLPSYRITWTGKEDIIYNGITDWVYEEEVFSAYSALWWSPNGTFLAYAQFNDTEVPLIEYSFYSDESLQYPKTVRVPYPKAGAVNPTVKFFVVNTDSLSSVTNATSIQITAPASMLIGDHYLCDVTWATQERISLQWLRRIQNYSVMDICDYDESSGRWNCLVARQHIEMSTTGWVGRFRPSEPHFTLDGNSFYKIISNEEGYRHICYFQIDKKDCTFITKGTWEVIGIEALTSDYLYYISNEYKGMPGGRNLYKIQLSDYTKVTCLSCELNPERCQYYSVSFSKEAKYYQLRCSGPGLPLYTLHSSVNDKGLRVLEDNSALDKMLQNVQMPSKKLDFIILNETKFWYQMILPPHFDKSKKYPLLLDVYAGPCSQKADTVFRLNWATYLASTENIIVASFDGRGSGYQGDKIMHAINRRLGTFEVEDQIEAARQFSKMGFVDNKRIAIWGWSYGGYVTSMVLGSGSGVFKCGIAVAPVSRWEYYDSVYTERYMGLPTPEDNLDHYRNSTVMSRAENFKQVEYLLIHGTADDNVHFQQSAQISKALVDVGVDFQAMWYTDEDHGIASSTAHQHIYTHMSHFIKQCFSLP
Sequence of UniProt P26718 (whole entry, looked up): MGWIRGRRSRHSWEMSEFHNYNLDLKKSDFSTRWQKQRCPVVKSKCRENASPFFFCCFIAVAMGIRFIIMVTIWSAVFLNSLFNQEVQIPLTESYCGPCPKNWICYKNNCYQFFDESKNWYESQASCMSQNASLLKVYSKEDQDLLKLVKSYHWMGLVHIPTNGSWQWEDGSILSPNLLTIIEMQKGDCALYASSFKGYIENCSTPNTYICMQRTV
Sequence of UniProt P47774 (whole entry, looked up): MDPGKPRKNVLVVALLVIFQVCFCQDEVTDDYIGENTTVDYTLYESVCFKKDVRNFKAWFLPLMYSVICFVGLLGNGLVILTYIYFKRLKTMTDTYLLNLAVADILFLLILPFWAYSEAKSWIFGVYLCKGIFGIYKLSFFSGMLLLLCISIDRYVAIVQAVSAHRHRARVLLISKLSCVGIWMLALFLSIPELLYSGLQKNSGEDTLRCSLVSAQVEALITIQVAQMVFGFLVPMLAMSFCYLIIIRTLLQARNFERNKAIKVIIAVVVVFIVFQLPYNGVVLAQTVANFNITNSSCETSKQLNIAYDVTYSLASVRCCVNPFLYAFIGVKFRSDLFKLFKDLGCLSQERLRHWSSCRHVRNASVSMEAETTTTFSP
Sequence of UniProt P40261 (whole entry, looked up): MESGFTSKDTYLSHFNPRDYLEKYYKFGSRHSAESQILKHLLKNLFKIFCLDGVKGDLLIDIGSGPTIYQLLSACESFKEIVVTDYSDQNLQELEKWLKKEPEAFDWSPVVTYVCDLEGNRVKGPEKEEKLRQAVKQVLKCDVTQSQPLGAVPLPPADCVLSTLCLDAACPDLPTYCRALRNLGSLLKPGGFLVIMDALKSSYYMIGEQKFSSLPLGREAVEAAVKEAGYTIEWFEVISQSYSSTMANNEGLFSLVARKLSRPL
Sequence of UniProt P33261 (whole entry, looked up): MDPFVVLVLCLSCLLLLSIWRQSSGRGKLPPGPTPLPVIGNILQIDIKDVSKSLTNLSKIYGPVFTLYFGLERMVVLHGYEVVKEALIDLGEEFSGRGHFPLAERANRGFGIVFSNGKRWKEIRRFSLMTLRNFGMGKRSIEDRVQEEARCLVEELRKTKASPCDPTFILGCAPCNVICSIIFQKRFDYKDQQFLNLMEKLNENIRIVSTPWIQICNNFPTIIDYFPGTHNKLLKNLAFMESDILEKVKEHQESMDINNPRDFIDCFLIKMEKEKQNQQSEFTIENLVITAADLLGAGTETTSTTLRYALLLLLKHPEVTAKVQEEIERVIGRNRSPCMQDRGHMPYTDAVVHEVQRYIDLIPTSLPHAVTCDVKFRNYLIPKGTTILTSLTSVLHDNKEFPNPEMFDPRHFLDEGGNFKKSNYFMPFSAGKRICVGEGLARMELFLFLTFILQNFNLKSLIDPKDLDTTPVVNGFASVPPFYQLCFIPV
Sequence of UniProt P41595 (whole entry, looked up): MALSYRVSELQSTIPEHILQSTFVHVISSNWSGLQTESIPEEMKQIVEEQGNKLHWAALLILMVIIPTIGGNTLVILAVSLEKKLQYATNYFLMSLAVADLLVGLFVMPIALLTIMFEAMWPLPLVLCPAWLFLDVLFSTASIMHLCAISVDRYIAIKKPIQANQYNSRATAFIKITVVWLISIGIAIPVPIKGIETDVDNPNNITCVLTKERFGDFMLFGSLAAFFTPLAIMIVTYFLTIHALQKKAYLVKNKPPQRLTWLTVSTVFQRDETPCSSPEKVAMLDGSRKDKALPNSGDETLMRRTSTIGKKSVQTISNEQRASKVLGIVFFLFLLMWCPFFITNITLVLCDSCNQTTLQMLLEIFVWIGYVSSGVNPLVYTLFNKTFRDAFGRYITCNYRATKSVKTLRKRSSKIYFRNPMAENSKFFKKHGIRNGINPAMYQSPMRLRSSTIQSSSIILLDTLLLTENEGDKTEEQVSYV
Sequence of UniProt O15294 (whole entry, looked up): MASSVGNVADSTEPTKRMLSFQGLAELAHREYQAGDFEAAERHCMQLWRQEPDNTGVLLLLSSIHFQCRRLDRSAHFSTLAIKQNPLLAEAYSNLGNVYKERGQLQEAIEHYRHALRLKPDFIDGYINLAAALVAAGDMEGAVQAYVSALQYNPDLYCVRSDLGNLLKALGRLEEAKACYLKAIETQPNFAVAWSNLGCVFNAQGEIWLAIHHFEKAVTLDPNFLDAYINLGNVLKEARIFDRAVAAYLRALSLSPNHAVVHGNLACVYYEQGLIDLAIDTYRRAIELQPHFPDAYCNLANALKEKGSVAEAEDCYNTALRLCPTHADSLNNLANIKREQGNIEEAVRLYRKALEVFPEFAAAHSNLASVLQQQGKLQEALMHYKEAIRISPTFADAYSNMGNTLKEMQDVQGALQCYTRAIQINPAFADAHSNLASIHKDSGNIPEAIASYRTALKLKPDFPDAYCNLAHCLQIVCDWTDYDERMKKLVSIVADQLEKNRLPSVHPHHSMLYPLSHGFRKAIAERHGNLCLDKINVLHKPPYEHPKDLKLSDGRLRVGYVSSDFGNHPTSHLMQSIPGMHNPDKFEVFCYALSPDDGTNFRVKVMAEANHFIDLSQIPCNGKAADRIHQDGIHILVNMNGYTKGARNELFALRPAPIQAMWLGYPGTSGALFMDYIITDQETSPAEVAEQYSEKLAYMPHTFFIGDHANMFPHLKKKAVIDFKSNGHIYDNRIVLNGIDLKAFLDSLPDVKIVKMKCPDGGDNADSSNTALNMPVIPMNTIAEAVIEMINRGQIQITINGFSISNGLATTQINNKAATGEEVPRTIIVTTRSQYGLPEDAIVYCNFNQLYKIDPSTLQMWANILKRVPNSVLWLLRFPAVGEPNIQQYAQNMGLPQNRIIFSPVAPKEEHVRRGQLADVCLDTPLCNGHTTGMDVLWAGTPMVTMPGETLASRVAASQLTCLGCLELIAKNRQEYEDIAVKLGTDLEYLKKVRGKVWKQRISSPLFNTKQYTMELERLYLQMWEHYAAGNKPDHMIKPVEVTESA
Sequence of UniProt P11473 (whole entry, looked up): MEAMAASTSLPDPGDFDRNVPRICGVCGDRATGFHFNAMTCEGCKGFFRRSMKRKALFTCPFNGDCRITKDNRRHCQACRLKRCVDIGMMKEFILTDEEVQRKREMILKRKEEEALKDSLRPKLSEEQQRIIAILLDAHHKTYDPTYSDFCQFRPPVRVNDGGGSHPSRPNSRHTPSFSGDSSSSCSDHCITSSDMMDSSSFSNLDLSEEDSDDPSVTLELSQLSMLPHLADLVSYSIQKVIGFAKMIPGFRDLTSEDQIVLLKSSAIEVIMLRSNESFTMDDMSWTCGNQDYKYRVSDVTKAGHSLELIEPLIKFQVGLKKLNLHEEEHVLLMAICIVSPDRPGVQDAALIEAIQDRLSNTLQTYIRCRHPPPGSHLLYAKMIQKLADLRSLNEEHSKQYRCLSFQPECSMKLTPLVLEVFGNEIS
Sequence of UniProt P50391 (whole entry, looked up): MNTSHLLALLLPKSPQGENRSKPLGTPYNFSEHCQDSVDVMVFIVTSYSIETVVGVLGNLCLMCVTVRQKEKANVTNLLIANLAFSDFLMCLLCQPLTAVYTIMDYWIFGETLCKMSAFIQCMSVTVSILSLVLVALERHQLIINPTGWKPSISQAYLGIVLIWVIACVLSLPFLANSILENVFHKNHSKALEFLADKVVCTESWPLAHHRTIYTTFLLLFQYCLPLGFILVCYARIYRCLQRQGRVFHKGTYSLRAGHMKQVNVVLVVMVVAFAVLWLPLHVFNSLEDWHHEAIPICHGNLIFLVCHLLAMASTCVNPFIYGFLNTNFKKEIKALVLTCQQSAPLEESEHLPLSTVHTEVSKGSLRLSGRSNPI
Sequence of UniProt P30101 (whole entry, looked up): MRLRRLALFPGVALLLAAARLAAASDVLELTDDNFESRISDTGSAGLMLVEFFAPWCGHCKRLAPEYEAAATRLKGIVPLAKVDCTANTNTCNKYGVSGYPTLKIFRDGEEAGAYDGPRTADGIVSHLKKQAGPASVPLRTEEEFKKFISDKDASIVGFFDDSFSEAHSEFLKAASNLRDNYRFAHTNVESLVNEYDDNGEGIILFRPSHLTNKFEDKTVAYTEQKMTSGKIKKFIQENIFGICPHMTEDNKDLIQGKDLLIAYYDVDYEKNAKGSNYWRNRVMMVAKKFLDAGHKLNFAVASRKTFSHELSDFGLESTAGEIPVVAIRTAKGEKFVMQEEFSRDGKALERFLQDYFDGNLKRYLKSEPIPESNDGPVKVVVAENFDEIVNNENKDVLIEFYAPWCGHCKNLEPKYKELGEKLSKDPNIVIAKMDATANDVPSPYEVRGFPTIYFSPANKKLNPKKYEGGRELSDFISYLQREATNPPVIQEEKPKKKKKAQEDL

Structure (SMILES)	target	assay	system	setting	IC50
NC[C@@H]1O[C@H](O[C@H]2[C@@H](O)[C@H](O[C@@H]3[C@@H](O)[C@H](N)C[C@H](N)[C@H]3O[C@H]3O[C@H](CN)[C@@H](O)[C@H](O)[C@H]3N)O[C@@H]2Cn2cc(COCCCCCCCCOCc3cn(C[C@H]4O[C@@H](O[C@@H]5[C@@H](O)[C@H](N)C[C@H](N)[C@H]5O[C@H]5O[C@H](CN)[C@@H](O)[C@H](O)[C@H]5N)[C@H](O)[C@@H]4O[C@H]4O[C@@H](CN)[C@@H](O)[C@H](O)[C@H]4N)nn3)nn2)[C@H](N)[C@@H](O)[C@@H]1O	HIV-1 TAR RNA	ethidium displacement	–	pH 6.8	0.067 µM
CC[C@@H]1C(=O)N(C)c2cnc(Nc3ccc(C(=O)NCCCC[C@H](NC(=O)COCCOCCNC(=O)COCCOCCNC(=O)COCCOCCNC(=O)[C@@H](NC(=O)[C@H](CO)NC(=O)[C@H](Cc4cncn4CCCCCCCCc4ccccc4)NC(=O)[C@H](CC(C)C)NC(=O)[C@@H]4CCCN4C(C)=O)[C@@H](C)OP(=O)(O)O)C(N)=O)cc3OC)nc2N1C1CCCC1	Serine/threonine-protein kinase PLK1 (PLK1, Homo sapiens, UniProt P53350)	enzyme activity, inhibitor	–	–	0.0017 ± 9.7e-05 µM
CC(=O)N[C@@H]1[C@@H](O)[C@H](O)[C@@H](CO)O[C@@H]1SP(=O)(O)OP(=O)(O)OC[C@H]1O[C@@H](n2ccc(=O)[nH]c2=O)[C@H](O)[C@@H]1O	UDP-N-acetylglucosamine--peptide N-acetylglucosaminyltransferase 110 kDa subunit (OGT, Homo sapiens, UniProt O15294)	enzyme activity, inhibitor, radiometric	–	–	93 µM
CC[C@H](C)[C@H](NC(=O)[C@H](CC(C)C)NC(=O)[C@@H]1CCCN1C(=O)[C@H](CO)NC(=O)[C@@H](N)CC(C)C)C(=O)N[C@@H](Cc1ccccc1)C(=O)N[C@H](C(=O)N[C@H](C(=O)N[C@H](C(=O)N1CCC[C@H]1C(=O)N[C@@H](CC(=O)O)C(=O)N[C@H](C(=O)O)[C@@H](C)O)[C@@H](C)O)[C@@H](C)O)C(C)C	C-C chemokine receptor type 7, with CCL21 (Ccr7, Mus musculus, UniProt P47774)	ligand binding, inhibitor, flow cytometry	B16 expressing CCR7	4 °C, together with: CCL21	256 ± 36.7 µM
CC[C@H](C)[C@H](NC(=O)[C@H](CO)NC(=O)[C@H](CC(=O)O)NC(=O)[C@@H](NC(=O)[C@@H](NC(=O)[C@@H](NC(=O)CNC(=O)[C@H](CCC(N)=O)NC(=O)[C@H](CCC(N)=O)NC(=O)[C@H](Cc1ccc(O)cc1)NC(=O)[C@H](C)NC(=O)[C@@H](N)CCCCN)C(C)C)[C@@H](C)O)C(C)C)C(=O)NCC(=O)N[C@@H](CCSC)C(=O)N[C@@H](CC(C)C)C(=O)N1CCC[C@H]1C(=O)N[C@@H](CCCNC(=N)N)C(=O)N[C@@H](Cc1ccccc1)C(=O)N[C@H](C(=O)N1CCC[C@H]1C(=O)O)[C@@H](C)O	HLA-DRA/HLA-DRB3 (Homo sapiens, UniProt P01903+P79483)	binding, competition binding	purified HLA-DR	48 h, together with: radiolabelled probe peptide 0.1-1 nM	0.086 µM
COc1ccc2nc(C)cc(OCC(=O)Nc3cc(C)cc(C)c3)c2c1	Cytochrome P450 2C19 (CYP2C19, Homo sapiens, UniProt P33261)	inhibitor	–	–	11 µM
CC[N+](CC)(CC)CC	Potassium channel protein kcv (A250R, Paramecium bursaria Chlorella virus 1, UniProt Q84568, L70Y)	–	–	–	830 ± 170 µM
CC(=O)N[C@H]1CSCc2ccccc2CSC[C@@H](C(=O)O)NC(=O)[C@H](CCC(=O)O)NC(=O)[C@H](Cc2ccccc2)NC(=O)[C@@H]2CCCN2C(=O)[C@H](CC(N)=O)NC1=O	EH domain-containing protein 1, EH domain (Homo sapiens, UniProt Q9H4M9)	–	–	–	34 ± 3.8 µM
N#Cc1cn([C@@H]2O[C@H](CSCC[C@H](N)C(=O)O)[C@@H](O)[C@H]2O)c2ncnc(N)c12	DNA (cytosine-5)-methyltransferase 3B, with DNMT3L (DNMT3B, Homo sapiens, UniProt Q9UBC3)	inhibitor	–	–	0.03 ± 0.006 µM
CC(C)C[C@H](NC(=O)[C@@H](N)CCCCN)C(=O)NCC(=O)NCC(=O)NCC(=O)N[C@@H](CCC(N)=O)C(=O)N[C@@H](Cc1ccc(O)cc1)C(=O)NCC(=O)N[C@@H](CCC(=O)O)C(=O)O	HLA class I histocompatibility antigen, A alpha chain, allele A*33:01 (Homo sapiens, UniProt P04439)	peptide binding, competitive radioligand binding	–	room temperature, HLA-A*3301 allele, together with: radiolabelled probe peptide	63.6 µM
CNC(=O)NC(=N)NCCC[C@@H]1NC(=O)[C@@H](CO)NC(=O)C[C@@H](C(=O)O)NC(=O)C[C@@H](C(=O)O)NC(=O)[C@H](Cc2ccccc2)N(C)C1=O	Endochitinase B1 (Aspergillus fumigatus, UniProt Q873X9)	enzyme activity, inhibitor, fluorometric	–	10 min, pH 5.5, 37 °C, together with: 20 µM 4-MU-chitobiose	0.28 µM
C/C=C1/CN2CCc3c([nH]c4ccccc34)[C@@H]2C[C@@H]1/C(=C\OC)C(=O)OC	5-hydroxytryptamine receptor 2B (HTR2B, Homo sapiens, UniProt P41595)	inositol phosphate, antagonist	–	–	0.182 µM
CC[C@H](C)[C@@H]1NC(=O)[C@H](Cc2c[nH]cn2)NC(=O)[C@H](CC(N)=O)NC(=O)CNC(=O)[C@H](Cc2ccccc2)NC(=O)[C@H](CCCNC(=N)N)NC(=O)[C@H](C)NC(=O)[C@H](Cc2ccccc2)NC(=O)[C@H](C(C)C)NC(=O)[C@H](Cc2ccccc2)NC(=O)[C@@H](Cc2ccc(O)cc2)NC(=O)CSC[C@@H](C(=O)NCC(N)=O)NC(=O)[C@H](C)NC(=O)[C@H](CCCCN)NC(=O)[C@H]([C@@H](C)CC)NC(=O)[C@H]([C@@H](C)CC)NC(=O)[C@H](C(C)C)NC1=O	Nicotinamide N-methyltransferase (NNMT, Homo sapiens, UniProt P40261)	enzyme activity, inhibitor, mass spectrometry	–	–	1.24 µM
CN(C)CP(C)(=O)O	Urease subunit alpha, with UreA, UreB (ureC, Proteus mirabilis, UniProt P17086)	whole-cell urease activity, inhibitor	–	15 min preincubation, pH 5.5, 37 °C, together with: 5 mM urea	154 ± 6 µM
C[C@H](CS)C(=O)Nc1ccccc1-c1nnn(C)n1	Metallo-beta-lactamase type 2	enzyme activity, inhibitor, fluorescence	–	10 min preincubation, together with: FC5	12.6 µM
COc1cc2c(cc1O)oc1c3ccc(O)cc3oc(=O)c21	Genome polyprotein, NS5B polymerase (Hepatitis C virus genotype 1b, UniProt P26663)	NS5B RNA polymerase activity, inhibitor	hepatitis C virus, genotype 1b	together with: poly(rA)/U12	174 µM
CC(C)C[C@H](NC(=O)[C@H](C)NC(=O)[C@H](CC(N)=O)NC(=O)[C@H](CCC(=O)O)NC(=O)[C@@H](N)CCCCN)C(=O)N[C@@H](CC(C)C)C(=O)N[C@@H](CCCNC(=N)N)C(=O)N[C@@H](Cc1ccc(O)cc1)C(=O)N[C@@H](CC(C)C)C(=O)N[C@@H](CC(C)C)C(=O)N[C@@H](CC(=O)O)C(=O)N[C@@H](CCCCN)C(=O)N[C@@H](CC(=O)O)C(=O)NCC(=O)NCC(=O)NCC(=O)N[C@@H](CCCNC(=N)N)C(=O)N[C@@H](CCCNC(=N)N)C(=O)N[C@@H](CCCNC(=N)N)C(N)=O	Vitamin D3 receptor (VDR, Homo sapiens, UniProt P11473)	reporter gene, antagonist, dual-luciferase	MCF7	16 h, together with: calcitriol 30 nM	> 30 µM
CCCCCCCCCC1N=C(N)N=C(N)N1c1ccccc1C (racemic)	Dihydrofolate reductase (folA, Staphylococcus aureus, UniProt P0A017)	enzyme activity, inhibitor	–	–	23 µM
Cc1cccc([C@H](NC(=O)c2cnccc2-c2ccc(C(F)(F)F)cc2)C(=O)N(C)C)c1	NKG2-D type II integral membrane protein, with MICA (KLRK1, Homo sapiens, UniProt P26718)	ligand binding, inhibitor, TR-FRET	HEK293 expressing NKG2D and DAP10	together with: MICA-Alexa647	0.7 ± 0.3 µM
CC(C)C[C@H](N)C(=O)N1CCC[C@H]1C(=O)N[C@@H](Cc1ccccc1)C(=O)N[C@@H](C)C(=O)O	Dipeptidyl peptidase 4 (DPP4, Homo sapiens, UniProt P27487)	enzyme activity, inhibitor, absorbance	–	–	< 300 µM and 216 µM
CC(=O)N[C@@H](CCCNC(=N)N)C(=O)N[C@@H](Cc1ccc(O)cc1)C(=O)N[C@@H](CCCNC(=N)NC(=O)NCCCCN)C(=O)N[C@@H](CC(C)C)C(=O)N[C@@H](CCCNC(=N)N)C(=O)N[C@H](Cc1ccc(O)cc1)C(N)=O	Neuropeptide Y receptor type 4 (NPY4R, Homo sapiens, UniProt P50391)	β-arrestin 2 recruitment, antagonist	HEK293T	together with: 3 nM human pancreatic polypeptide	1.12 ± 0.25 µM
COC(=O)C1CN1S(=O)(=O)c1ccc(C)cc1 (centres unmarked)	Protein disulfide-isomerase A3 (PDIA3, Homo sapiens, UniProt P30101)	enzyme activity, inhibitor, absorbance	–	pH 7.6	28 µM
CCCCn1nnc(-c2cccc(NC(=O)[C@H](C)CS)c2)n1	Metallo-beta-lactamase type 2	inhibitor	–	10 min preincubation, together with: FC5 substrate	4.97 µM

Excerpt of the above:
Structure (SMILES)	target	assay	system	setting	IC50
CC(C)C[C@H](N)C(=O)N1CCC[C@H]1C(=O)N[C@@H](Cc1ccccc1)C(=O)N[C@@H](C)C(=O)O	Dipeptidyl peptidase 4 (DPP4, Homo sapiens, UniProt P27487)	enzyme activity, inhibitor, absorbance	–	–	< 300 µM and 216 µM
CC(=O)N[C@@H](CCCNC(=N)N)C(=O)N[C@@H](Cc1ccc(O)cc1)C(=O)N[C@@H](CCCNC(=N)NC(=O)NCCCCN)C(=O)N[C@@H](CC(C)C)C(=O)N[C@@H](CCCNC(=N)N)C(=O)N[C@H](Cc1ccc(O)cc1)C(N)=O	Neuropeptide Y receptor type 4 (NPY4R, Homo sapiens, UniProt P50391)	β-arrestin 2 recruitment, antagonist	HEK293T	together with: 3 nM human pancreatic polypeptide	1.12 ± 0.25 µM
